Measurements from different studies.
Every numbered part comes from another study and shows a few of its results, in no order.

Study 1
Target: Ras GTPase-activating protein-binding protein 1, full length (G3BP1, Homo sapiens, UniProt Q13283)
UniProt Q13283, sequence (whole entry, looked up): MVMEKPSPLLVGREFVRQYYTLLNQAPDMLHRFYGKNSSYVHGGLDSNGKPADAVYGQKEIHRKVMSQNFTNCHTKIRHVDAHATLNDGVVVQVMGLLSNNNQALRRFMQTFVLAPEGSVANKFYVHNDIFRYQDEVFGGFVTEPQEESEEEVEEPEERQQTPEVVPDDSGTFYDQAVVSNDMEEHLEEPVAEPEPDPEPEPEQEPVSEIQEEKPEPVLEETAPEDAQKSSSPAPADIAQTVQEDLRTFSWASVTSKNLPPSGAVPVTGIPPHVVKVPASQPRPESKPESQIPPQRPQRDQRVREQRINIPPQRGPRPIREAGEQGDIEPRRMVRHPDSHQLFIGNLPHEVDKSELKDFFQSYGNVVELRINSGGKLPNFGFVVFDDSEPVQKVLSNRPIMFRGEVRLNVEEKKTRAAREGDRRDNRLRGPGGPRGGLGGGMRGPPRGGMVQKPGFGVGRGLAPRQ
Method: RNA Bind-n-Seq
Molecule type: RNA
Medium: in vitro
Tested at: 200 nM
Setting: whole 134-nt RNA, ends assumed
Added: 150 mM LiCl
Reference: input library
Reading: higher = stronger binding
All molecules: 7-deaza-guanosine replaces G
All sequences stand within: GGGAGUUCUACAGUCCGACGAUC … UGGAAUUCUCGGGUGUCAAGG
Oligonucleotide	log2 enrichment
UCCUGUGCUACACAUCGUAUGUACCGAAUCGGGGAAAAAGGGGAGGGGAAAAAAAGGGGAAAGUAUUAUGUUACGCCGUUCGGAUCUGCA	0.414
GUCCUGUGCUACACAUCGUAUGUACCGAAUCGGGUUUUUUUGGGUUUUUUUGGGUGGGAAAGUAUUAUGUUACGCCGUUCGGAUCUGCAC	-0.642
UAUUGGACACAGUGCCCCGCUGAACAGCAGCUGUUCCCAGCGCCAGAGGACCCCACAGCCACAGUAGGAGCUUUGCGACCCCUACGCAAC	-1.49
UGGGAGGUGGAUUUUGUUUAUUUUUUUAGCUCAUUUCCAGGCGUGGGAAUUUUUUUUUAAUAUGUGUCAUGAAUAAAGUUGUUUUUGAAA	-0.898
UUUUGAGGAAAGGAUGAAGGAGCUCAGAGAAGAGGUAAGGGUCUCCUAUCCUUCCCCUCUCCCCCAGAUUUGAGUUUUAUGUUAUGAAUC	-0.438
AAGUCCUGUGCUACACAUCGUAUGUACCGAAUCGGGGAGGGGAGGGGAAAAAGGGGAAAGUAUUAUGUUACGCCGUUCGGAUCUGCACUU	0.944
GCAGGAAGUAAAAACAAAUGGAAAUGCUUCGGAUAGUGGCAGGGAAAGGGGUUGCUAAGGAAAGGGUGGGAUGGGAGUGGGUAAAGAGUU	0.0161
GCAGGAAGUAAAAACAAAUGGAAAUGCUUCGGAUAGUGGCAGGGGUGGGGGUUGCUAAGGAAAGGGGGGGAUGGGAGUGGGUAAAGAGUU	-0.0405
CAAGUCCUGUGCUACACAUCGUAUGUACCGAAUCAAAUUUAAAUUUAAACCCAAAAAAGUAUUAUGUUACGCCGUUCGGAUCUGCACUUC	1.12
AAGUCCUGUGCUACACAUCGUAUGUACCGAAUCGGAAAAAAAGGAAAAAGGAAAGGAAAGUAUUAUGUUACGCCGUUCGGAUCUGCACUU	-1.14
ACCAUGCAGGUGGGCAUCUUUGGGAAGUGGGGCAAGGGGGGGAUAAGGAGGGGGGUAACACUUUGGGAACAGGUGGUCCCAGGUCGUUUC	0.335

Study 2
Target: RNA binding protein fox-1 homolog 2, RRM domain, GST-SBP tag (RBFOX2, Homo sapiens, UniProt O43251-10, residues 100-194)
Method: RNA Bind-n-Seq
Molecule type: RNA
Medium: in vitro
Tested at: 365 nM
Setting: natural RNA segment, single round, ends assumed
Reference: no-protein control
Reading: higher = stronger binding
All sequences stand within: GGGAGUUCUACAGUCCGACGAUC … UGGAAUUCUCGGGUGCCAA
Residues (chain): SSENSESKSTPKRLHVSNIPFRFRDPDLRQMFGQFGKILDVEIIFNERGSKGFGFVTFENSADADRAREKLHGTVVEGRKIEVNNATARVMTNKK
Oligonucleotide	RBNS enrichment (R)
UCUGGAAUUAUCUACUAUCCCAAUCCACUACCCUCACCUGGCAAUAUUUGUCUGUUUUUGUUUGUUUGUUUGUUUGUUUUUGUCUUUUGCCAGUUUGAAUUAGAAGGCAA	18.1
AAUUAACUUUCAGUUAUGAUUUCCCAUCGACAUUUUCUUUGCCCUGUUUGUAGCUGAUUGUUGUGUUUUAUAAAUCUUCUGUUAAGGCAGAAGGGUGAUUAUGAGUGGUU	0.231
CAUUGCUUACCCCGAGCCGGGGUUCCCUCCUCCCGGCCCGCUGCCGCCACCCACCUCUCCUGCAGGCUGCGACCUGCAGUGGCCCGUCUCAGGCCCUGCUCACUCCCGGG	0.553
GCCUUUCCCUUCUUUGAUCCCCUCCCUUCCAUUGUUCAUUCAUGAAGAGUUUUGUUAGAGACAAGCAAUCUGUAAUCCCUCACCUGAAGACCGCAGACUGCAGCUCUGUC	0.758
GCCCUUGAGUGGGGCAGCCUCCUUGCCUGGAACUCACUCACUCUGGGUGCCUCCUCCCCAGGUGGAGGUGCCAGGAAGCUCCCUCCCUCACUGUGGGGCAUUUCACCAUU	0.283
CACCUGCACACACGCCCUGGCACACAUACACACAUGCGUGCAGGCUUGUGCAGACACUCAGGGAUGGAGCUGCUGCUGAAGGGACUUGUAGGGAGAGGCUCGUCAACAAG	0.682
UUGCAGGGCCAUGCAGGCCGGACUCGUUGCCUUAAUUCAAGAACCUGUGUCUAUGUGUAUGUACACAUACUUCUGUCAGAGAGAGAGAGACACCCACCAUGGGUCUUUGA	0.697
UCAUUGGUACGGUUUUUCUAAGGGCCGCAGUGAGAUGUAGCAGAAGAAAUAUGUUUAUUUUGGGCAAAGAUUUGCUUAUUGGCCUGGGAUUGCACAUUUUCUCUAUGAUG	0.455
GACAUGUCUUCAUGUCCAGCUACUUGUUUCACCAUGGCAGACCUCCCUGAGCCUUCUUCCUGCCCUGGGUAGGAAGUGUGGCUCUGGGUCUGUGGUCACUCUCCACCUUG	0.272
GAUUUUAAUUAGCUGUGAGAUUUAUGCACAAAGUGAAUAUUUAGCUGAUAGAAAUUAUGAUUUUGUUUCAAAUGUGGCUUUGCUUUUGUUUUGUUUUGUUUUGUUUUUUC	7.31
AUCCCCUCAUUCAGGAAAACUGACAGAGGAGGGCGUGACUCACCCAAGCAUAUAUAACUAGCUAGAAGUGGGCCAGGACAGGCCCGGCGCGGUGGCUCACGCCUGUAAUC	0.251
UAUGCUGUUUAGUAUUCGUUUGAUAUUGUUACUUUUCACCUGUUGAGCCCAAAUUCAGGAUUGGUUCAGUGGCAGCAAUGAAGUUGCCAUUUAAAUUUGUUCAUAGCCUA	0.333

Study 3
Target: Interferon regulatory factor 5, full length, phosphomimetic (IRF5, Homo sapiens, UniProt Q13568-2, residues 1-514, K96S/S451D/S453D/S456D/S462D)
Method: protein-binding microarray
Molecule type: double-stranded DNA, one strand shown
Medium: in vitro
Tested at: 250 nM
Setting: 60-bp whole probe
Added: salmon DNA 0.4 mg/ml
Reference: random background probes
Reading: higher = stronger binding
All sequences stand within: GCCTAGCAC … GTCTTGATTCGCTTGACGCTGCTG
Oligonucleotide	log fluorescence
TTAGGTTTCGGACTGGGTAAGTGCTAG	5.71 z-score
GAGAGTAGCTTTCTGAGGGCGTGCTAG	0.417 z-score
TTAGAACTGGGGACTGGAGTAGTGCTA	-0.221 z-score
GACGGATTCGGTTTCGGGACGTGCTAG	4.54 z-score
CCCTTACCGCATATCGGGGTGTGCTAG	-0.021 z-score
TCATCTGTGCCTTTTTTACTGTGCTAG	0.55 z-score
GACGGACTTGACTATCGGGACGTGCTA	1.28 z-score
GACGGACTGGGGTATCGGCACGTGCTA	-0.186 z-score
TTAGGTTTCCTTAGCCTTTAGTGCTAG	0.307 z-score
GAAGAACTGGGGTTTCGAGACGTGCTA	1.26 z-score
TTAGGTTTCGGGTTTGGGTTAGTGCTA	7.74 z-score
GACGGCCTGGACTTTCGGGACGTGCTA	3.29 z-score
TTATAACTGAGACTGGATTAGTGCTAG	0.126 z-score
TATAGGTTGTTTCTAATATTGTGCTAG	0.863 z-score
TCAGGTTTCTATATTTGACTGTGCTAG	2.42 z-score
GACGGTTTCCCTTTCCTGACGTGCTAG	1.24 z-score
TTAGGACTAGGGTTTCGGTTAGTGCTA	6.06 z-score
ATGGTCCTCTCTCTATTCAGGTGCTAG	-0.0505 z-score
TCCCTATTATATATATCATAGTGCTAG	0.804 z-score
GACGGTAGCGGACTGGGGACGTGCTAG	-0.352 z-score
TTAGGACTGTTTCTCCTTTAGTGCTAG	0.729 z-score
GACGGTATCGACTTTCCGGACGTGCTA	2.73 z-score
TCATTTTCATTGTTTTTCACTGTGCTA	3.91 z-score
TCAACTAGCGGGTCTTGCACTGTGCTA	0.0122 z-score
TTAGTTCTCCTTTTCCTTTAGTGCTAG	0.896 z-score

Study 4
Target: Histone acetyltransferase KAT6A, both winged helices, GST fusion (KAT6A, Homo sapiens, UniProt Q92794, residues 1-181)
Method: protein binding microarray
Molecule type: double-stranded DNA, one strand shown
Medium: in vitro
Tested at: not given
Setting: 8-mer, flanks averaged, mean of 2 arrays, mostly near background
Reference: not given
Reading: higher = stronger binding
Target sequence (chain): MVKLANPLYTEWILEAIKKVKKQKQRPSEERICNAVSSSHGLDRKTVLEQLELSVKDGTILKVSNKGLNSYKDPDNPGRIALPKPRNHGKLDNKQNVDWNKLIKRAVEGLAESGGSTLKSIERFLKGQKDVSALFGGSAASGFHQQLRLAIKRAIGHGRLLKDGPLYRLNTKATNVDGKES
Oligonucleotide	E-score
AACCGATA	0.123
GGGAGCGA	-0.0127
GCACAACA	-0.022
ATATTTAC	0.0286
AGGCCCCC	-0.0745
GGGAGCCA	-0.0337
CGCTTCAA	0.173
AACCGTCG	0.307
AAAGGCAC	0.023
ACTTGCCG	0.12
ATCCAGCC	-0.144
ACCTAAAT	-0.0613
AACGCTTC	0.168
ACTCAGTC	-0.183
AGCCCCGA	-0.0399
CCCCCCCG	-0.0518
ACTAGCTG	-0.171
ACAGATCT	-0.146
CCCCGAGG	0.04
AGAACACT	-0.00403
ACAGTGTC	-0.105
TCTAACCA	-0.174
AGTATAGG	-0.00556

For quick reference, copied from above (study 1):
Oligonucleotide	log2 enrichment
GCAGGAAGUAAAAACAAAUGGAAAUGCUUCGGAUAGUGGCAGGGAAAGGGGUUGCUAAGGAAAGGGUGGGAUGGGAGUGGGUAAAGAGUU	0.0161
AAGUCCUGUGCUACACAUCGUAUGUACCGAAUCGGGGAGGGGAGGGGAAAAAGGGGAAAGUAUUAUGUUACGCCGUUCGGAUCUGCACUU	0.944
CAAGUCCUGUGCUACACAUCGUAUGUACCGAAUCAAAUUUAAAUUUAAACCCAAAAAAGUAUUAUGUUACGCCGUUCGGAUCUGCACUUC	1.12
UGGGAGGUGGAUUUUGUUUAUUUUUUUAGCUCAUUUCCAGGCGUGGGAAUUUUUUUUUAAUAUGUGUCAUGAAUAAAGUUGUUUUUGAAA	-0.898
UAUUGGACACAGUGCCCCGCUGAACAGCAGCUGUUCCCAGCGCCAGAGGACCCCACAGCCACAGUAGGAGCUUUGCGACCCCUACGCAAC	-1.49
GCAGGAAGUAAAAACAAAUGGAAAUGCUUCGGAUAGUGGCAGGGGUGGGGGUUGCUAAGGAAAGGGGGGGAUGGGAGUGGGUAAAGAGUU	-0.0405
GUCCUGUGCUACACAUCGUAUGUACCGAAUCGGGUUUUUUUGGGUUUUUUUGGGUGGGAAAGUAUUAUGUUACGCCGUUCGGAUCUGCAC	-0.642
ACCAUGCAGGUGGGCAUCUUUGGGAAGUGGGGCAAGGGGGGGAUAAGGAGGGGGGUAACACUUUGGGAACAGGUGGUCCCAGGUCGUUUC	0.335
UUUUGAGGAAAGGAUGAAGGAGCUCAGAGAAGAGGUAAGGGUCUCCUAUCCUUCCCCUCUCCCCCAGAUUUGAGUUUUAUGUUAUGAAUC	-0.438
AAGUCCUGUGCUACACAUCGUAUGUACCGAAUCGGAAAAAAAGGAAAAAGGAAAGGAAAGUAUUAUGUUACGCCGUUCGGAUCUGCACUU	-1.14
UCCUGUGCUACACAUCGUAUGUACCGAAUCGGGGAAAAAGGGGAGGGGAAAAAAAGGGGAAAGUAUUAUGUUACGCCGUUCGGAUCUGCA	0.414
